Measurements collected from several papers.
Every numbered part comes from another study and shows a few of its results, in no order.

Series 1
Target: RNA binding protein fox-1 homolog 2, RRM domain, GST-SBP tag (RBFOX2, Homo sapiens, UniProt O43251-10, residues 100-194)
Method: RNA Bind-n-Seq
Form: RNA
Sample: in vitro
Tested at: 365 nM
Notes: natural RNA segment, single round, ends assumed
Baseline: no-protein control
Direction: higher = stronger binding
Target sequence (chain): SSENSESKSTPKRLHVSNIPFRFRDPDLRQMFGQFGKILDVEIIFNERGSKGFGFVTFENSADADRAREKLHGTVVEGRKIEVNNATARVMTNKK
Strand | RBNS enrichment (R)
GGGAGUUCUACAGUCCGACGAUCCUGACCUUGUGCCUUAAGUCUACUAGUGCCUGAUGGAGCCACCCUCAUAGGGCUGAACCAGUGGGGCUGACGGGCCAGGUCAGCCUUGGACCCUUGAUCCUGGAGGACCCUGGAAUUCUCGGGUGCCAA | 0.206
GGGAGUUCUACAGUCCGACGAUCUUCACUUGUGUAUUUUACAGUGGUAGUAAAAUAUGUCUUCAACUGAUCAUUGCACUUAAAAUAUUAAUACUUCGGAGGAUAAAGCAGAAGGGUCAUAAGCUCAAGGCCAUUGGAAUUCUCGGGUGCCAA | 0.568
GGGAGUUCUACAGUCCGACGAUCUGCAAAUCUGAUGGCCUUAAUUUCCUUUUUGACACUGAAAGUUUUGUAAAAGAAAUCAUGUCCAUACACUUUGUUGCAAGAUGUGAAUUAUUGACACUGAACUUAAUAACUGGAAUUCUCGGGUGCCAA | 0.263
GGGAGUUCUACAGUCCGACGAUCCCAGGCUGCUGUAGUCCACCUGUGCCCUACUCAUUUGGGGACAGGUGGUUUUUCUUGUAAACUUGUGGACUUUUGAAACCUGUUGACUAAACAGUAAUUAAUUUAUAUUUUGGAAUUCUCGGGUGCCAA | 0.458
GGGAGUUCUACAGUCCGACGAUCUUGUAAGUGUACCCCAAUCUCAGGGAGUAUAUCUGUAGUGCCACAGGCAAAAGAUCCACUCCUUCCCACACUCAUUUGCCUGAACUUACUCGAAGGGCUGCAUUUCUCUGUGGAAUUCUCGGGUGCCAA | 1.21
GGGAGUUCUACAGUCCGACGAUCAAAGGCCGACUGUACCCAUGAGAGGUGCCUCACAGCAGGAGACUAAGAUCUGUUGAUGCUCUGAGGAAAACUCCCCCAUGACCAGGGUGGAUUCUGGCUUCAAGGCUGGAUGGAAUUCUCGGGUGCCAA | 0.252
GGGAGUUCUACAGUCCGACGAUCACCCCCAGUUGUGAAAACUGCAGUUUAGCAGUGACCUCAGCAACCCCUCCUUUUUAUUUUUUCCUUUAAAAACAUUUCAGUUAAAUUAAGCUACUGAUUUGGAUUUGUUUUGGAAUUCUCGGGUGCCAA | 0.44
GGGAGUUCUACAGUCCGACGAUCAAGGUGGAGAGAGCUGGCAACUACUGUGAGCAAGUCCCCUAGCCCCUGACCAGCCUCCUCCCAUGACUGGUGACUGUUUAAUGAGCUGUGCAUCCCCCACAAAAACAUGAUGGAAUUCUCGGGUGCCAA | 0.432
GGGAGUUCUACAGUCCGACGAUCUGGAGCUUUCCUCUUGGAACAGUUAACCGAAGACCCUCAUGGGCAAGGACAUCCGCUUGACUCCCCACUCACCAUCAGGCCACACUUUUAAAGAAAAAUUGUUCUCUAACUGGAAUUCUCGGGUGCCAA | 0.308
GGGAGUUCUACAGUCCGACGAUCACAAUAAGAAACAUACUCUCCAUAGUGCCAAGGCUACACAGAAACCCUGCCUCAAAAAAACAAGCAAAGCCGGGCGUGGUGGCGCACGCCUUUAAUCCCAGCACUUGGGAUGGAAUUCUCGGGUGCCAA | 0.408
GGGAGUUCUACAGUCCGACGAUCGAAGAGUCAGGCGAGGCCUGAUGGCUUUUAGGCCUUUCAUUCAACCAAUGUCAUUGUCCAAACAGAAGAGACUCAGGAGUCUGAGUAAAAUUGUGUUCCCUUGCCCUGAGUGGAAUUCUCGGGUGCCAA | 0.326
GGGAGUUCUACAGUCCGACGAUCCAGGGCACAGUUAGGCCUGGAUGUUUGCCUGGUCCGUGAGAUGCCGCGGGUCCUGUUUCCUUACUGGGGAUUUCAGGGCUGGGGGUUCAGGGAGCAUUUCCUUUUCCUGGUGGAAUUCUCGGGUGCCAA | 0.409

Series 2
Target: Ras GTPase-activating protein-binding protein 1, full length (G3BP1, Homo sapiens, UniProt Q13283)
Chain of UniProt Q13283 (whole entry, looked up): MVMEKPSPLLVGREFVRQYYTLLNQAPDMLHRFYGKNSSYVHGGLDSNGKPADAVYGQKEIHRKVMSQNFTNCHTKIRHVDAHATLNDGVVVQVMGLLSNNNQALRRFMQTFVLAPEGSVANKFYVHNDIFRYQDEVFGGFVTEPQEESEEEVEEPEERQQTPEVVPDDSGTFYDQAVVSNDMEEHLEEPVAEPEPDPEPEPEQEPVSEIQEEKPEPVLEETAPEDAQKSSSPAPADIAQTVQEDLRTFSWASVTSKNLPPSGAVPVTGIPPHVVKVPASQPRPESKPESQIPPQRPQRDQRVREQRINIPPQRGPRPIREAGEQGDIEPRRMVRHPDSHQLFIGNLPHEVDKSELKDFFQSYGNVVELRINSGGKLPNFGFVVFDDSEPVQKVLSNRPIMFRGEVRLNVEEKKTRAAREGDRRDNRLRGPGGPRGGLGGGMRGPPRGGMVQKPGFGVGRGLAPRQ
Method: RNA Bind-n-Seq
Form: RNA
Sample: in vitro
Tested at: 200 nM
Notes: whole 134-nt RNA, ends assumed
Together with: 150 mM KCl
Baseline: input library
Direction: higher = stronger binding
Strand | log2 enrichment
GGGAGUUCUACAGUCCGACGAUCUGGCCCGGGUGGCAUGCGGGGAGGAAGAGGUGGCCUCAUGGAUCGUGGUGGUCCCGGUGGAAUGUUCAGAGGUGGCCGUGGUGGAGACAGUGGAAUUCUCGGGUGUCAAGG | 0.817
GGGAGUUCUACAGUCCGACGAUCAGUCCUGUGCUACACAUCGUAUGUACCGAAUCGGGAAAAAAAGGGAGGGUUUUUGGGAAAGUAUUAUGUUACGCCGUUCGGAUCUGCACUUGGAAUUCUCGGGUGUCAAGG | -0.0475
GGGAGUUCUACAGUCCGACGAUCGCAGGAAGUAAAAACAAAUGGAAAUGCUUCGGGUAGUGGCAGGGGUGGGGGUUGCUAAGGAAAGGGUGGGAUGGGAGUGGGUAAAGAGUUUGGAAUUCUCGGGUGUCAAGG | 0.826
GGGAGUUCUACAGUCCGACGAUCUGCUUGUGUUUCUGACAGAUUCACUGCCUUCUGAGGACUUGGAUCCUGCCGAUCCCCCGAUCUCGGUAACUGUUGGCCUGAUCUGGCUGUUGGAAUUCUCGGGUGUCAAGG | 0.538
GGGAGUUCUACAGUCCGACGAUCCUGUGCUACACAUCGUAUGUACCGAAUCGGGGAAAAAAAGGGGAAAAAAAGGGGAAAGGGGAAAGUAUUAUGUUACGCCGUUCGGAUCUGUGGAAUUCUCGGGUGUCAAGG | -0.122
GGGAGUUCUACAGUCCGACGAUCGUCCUGUGCUACACAUCGUAUGUACCGAAUCGGGCCCCCGGGCCCCCGGGCCCCCGGGAAAGUAUUAUGUUACGCCGUUCGGAUCUGCACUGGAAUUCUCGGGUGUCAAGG | -1.02
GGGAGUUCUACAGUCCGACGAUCCUCAAGUCCUGUGCUACACAUCGUAUGUACCGAAUCGGUUGGGUUGGGUUGGGAAAGUAUUAUGUUACGCCGUUCGGAUCUGCACUUCCAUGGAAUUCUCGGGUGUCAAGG | 0.785
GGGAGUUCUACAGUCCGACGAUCUCCUGUGCUACACAUCGUAUGUACCGAAUCAAAUUUUUAAAUUUUUAAAUUUUUUUAAAAAAGUAUUAUGUUACGCCGUUCGGAUCUGCAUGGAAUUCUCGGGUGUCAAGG | -0.595
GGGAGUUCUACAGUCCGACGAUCCCUGUGCUACACAUCGUAUGUACCGAAUCGGGCCCCCCCGGCCCCCCCGGGCCCCCCCGGGAAAGUAUUAUGUUACGCCGUUCGGAUCUGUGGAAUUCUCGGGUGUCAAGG | -0.264
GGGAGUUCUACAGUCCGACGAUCUCAAGUCCUGUGCUACACAUCGUAUGUACCGAAUCGGCCCGGCCCGGGCCCGGGGAAAGUAUUAUGUUACGCCGUUCGGAUCUGCACUUCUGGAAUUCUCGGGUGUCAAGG | -0.951
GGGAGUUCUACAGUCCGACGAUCAGUCCUGUGCUACACAUCGUAUGUACCGAAUCGGGAAAAAAAGGGUUUUUGGGAGGGAAAGUAUUAUGUUACGCCGUUCGGAUCUGCACUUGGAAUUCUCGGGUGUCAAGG | -0.133
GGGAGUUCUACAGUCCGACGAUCGUCCUGUGCUACACAUCGUAUGUACCGAAUCGGGGAAAAAGGGGAAAGGGGUUUGGGGAAAGUAUUAUGUUACGCCGUUCGGAUCUGCACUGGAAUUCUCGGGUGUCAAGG | 0.438
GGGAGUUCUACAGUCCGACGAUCGUCCUGUGCUACACAUCGUAUGUACCGAAUCGGGCCCCGGGGCCCCGGGGCCCCGGGGAAAGUAUUAUGUUACGCCGUUCGGAUCUGCACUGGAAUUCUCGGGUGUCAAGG | -0.629
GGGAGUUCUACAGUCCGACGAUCUCCUCAAGUCCUGUGCUACACAUCGUAUGUACCGAAUCGGGGAGGAGGAGGGAAAGUAUUAUGUUACGCCGUUCGGAUCUGCACUUCCAGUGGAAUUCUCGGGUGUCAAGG | 0.346

Series 3
Target: Interferon regulatory factor 5, full length, phosphomimetic (IRF5, Homo sapiens, UniProt Q13568-2, residues 1-514, K96S/S451D/S453D/S456D/S462D)
Method: protein-binding microarray
Form: double-stranded DNA, one strand shown
Sample: in vitro
Tested at: 250 nM
Notes: 60-bp whole probe
Together with: salmon DNA 0.4 mg/ml
Baseline: random background probes
Direction: higher = stronger binding
Shared flanks, not repeated: GCCTAGCAC … GTCTTGATTCGCTTGACGCTGCTG
Strand | log fluorescence [z-score]
TTCGGTATCGGGACTGGGTTAGTGCTA | 2.79
GACGGTTTAGGTCTCGGGACGTGCTAG | -0.0947
TTAGGTTCCGGTCTCGGTTAGTGCTAG | 1.94
TCATTTTTCACCTGCACACTGTGCTAG | 1.52
TTAGATTTAGGGACTGGATTAGTGCTA | -0.0717
GACGGACTGGGTATCGAGACGTGCTAG | 0.121
TTAGATATCAGGATCGATTAGTGCTAG | 0.913
TTAGGTCTCAGTATCGATTAGTGCTAG | 6.39
TTTTTGTTGTTTTTTGGTTTGTGCTAG | 3.89
ATATCTAAAAAGTCTCTGGGAGTGCTA | 0.639
TGCAACATCCCAATGGCCCTGTGCTAG | -0.212
TCACCTTTTAATTTTTAACTGTGCTAG | 0.55
TCACTTTTGGCTTTCCTACTGTGCTAG | 1.9
GACGAACTGGGGAGTGGAGACGTGCTA | -0.359
GAGGATATCAGTATCGAGACGTGCTAG | 2.62
TTAGGTTTCGCGTTTCGGTTAGTGCTA | 7.72

Series 4
Target: Sal-like protein 4, full length isoform B (SALL4, Homo sapiens, UniProt Q9UJQ4-2, residues 1-616)
Method: universal PBM
Form: double-stranded DNA, one strand shown
Sample: in vitro
Tested at: not given
Notes: 8-mer, flanks averaged, mean of replicates
Direction: higher = stronger binding
Target sequence (chain): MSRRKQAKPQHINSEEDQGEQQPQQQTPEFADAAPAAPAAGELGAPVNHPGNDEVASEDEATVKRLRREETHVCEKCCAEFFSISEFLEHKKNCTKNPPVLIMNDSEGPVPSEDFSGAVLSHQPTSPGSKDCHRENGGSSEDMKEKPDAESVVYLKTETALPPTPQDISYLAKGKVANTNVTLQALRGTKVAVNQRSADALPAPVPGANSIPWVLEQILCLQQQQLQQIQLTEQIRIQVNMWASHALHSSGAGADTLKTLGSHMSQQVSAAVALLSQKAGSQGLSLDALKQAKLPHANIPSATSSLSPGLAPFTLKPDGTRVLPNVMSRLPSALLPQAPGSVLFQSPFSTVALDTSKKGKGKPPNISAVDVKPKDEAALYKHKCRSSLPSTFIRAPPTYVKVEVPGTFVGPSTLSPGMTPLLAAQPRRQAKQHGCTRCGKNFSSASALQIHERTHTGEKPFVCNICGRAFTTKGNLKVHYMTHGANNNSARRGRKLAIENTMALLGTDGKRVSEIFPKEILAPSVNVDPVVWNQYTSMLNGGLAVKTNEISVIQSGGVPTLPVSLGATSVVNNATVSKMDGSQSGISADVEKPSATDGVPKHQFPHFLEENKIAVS
Strand | E-score
ATTCGTCA | 0.0186
AGGCATGA | -0.0591
GGTGCGCA | -0.0928
GAGGGGCC | -0.39
CTGTGTGA | -0.0548
ATTTAACG | 0.252
CACTAGTA | 0.102
AGACGATG | 0.00755
CCATCGTA | 0.197
CGAAGGCA | -0.121
AAAGAGAC | -0.00666
CAAGCGGG | -0.277
GGTAGACA | -0.0493
AGAAGTTC | -0.135
CAAGGTCG | -0.164
AGTACTTA | 0.148
CCAAGGTA | -0.12
AACTCAGA | 0.0127
AACCGGAA | -0.135
AACATGGG | -0.0295
AACGACTT | -0.0723
GATGTCAA | 0.0699
CCTCCAAC | -0.155
CCTCGTAC | 0.0257
CGCCGCTA | -0.3

For quick reference, copied from above (series 3):
Strand | log fluorescence [z-score]
TCATTTTTCACCTGCACACTGTGCTAG | 1.52
TTAGATTTAGGGACTGGATTAGTGCTA | -0.0717
TGCAACATCCCAATGGCCCTGTGCTAG | -0.212
TCACCTTTTAATTTTTAACTGTGCTAG | 0.55
TTAGGTTTCGCGTTTCGGTTAGTGCTA | 7.72
ATATCTAAAAAGTCTCTGGGAGTGCTA | 0.639
TTAGGTCTCAGTATCGATTAGTGCTAG | 6.39
TTAGATATCAGGATCGATTAGTGCTAG | 0.913
TTCGGTATCGGGACTGGGTTAGTGCTA | 2.79
TCACTTTTGGCTTTCCTACTGTGCTAG | 1.9
GACGGACTGGGTATCGAGACGTGCTAG | 0.121
